Measured values of several laboratories.
Compare with care: the assays were run in different laboratories.
Organism: Staphylococcus aureus

| SMILES | assay | system | conditions | MIC |
| --- | --- | --- | --- | --- |
| Nn1c(CCCc2ccccc2)nc2cc(Cl)ccc2c1=O | broth microdilution | RN6390B |  | > 100 µM |
| CCCCO[C@H]1[C@H](O)[C@@H](N)[C@@H](O[C@H]2[C@H](O[C@@H]3O[C@H](CO)[C@@H](O[C@H]4O[C@@H](CN)[C@@H](O)[C@H](O)[C@H]4N)[C@H]3O)[C@@H](O)[C@H](N)C[C@@H]2N)O[C@@H]1CO | broth microdilution | MRSA isolate AG 044 |  | 16 µg/mL |
| Oc1c(Br)cc(Br)c2nc3cc(Cl)ccc3nc12 | broth microdilution | MRSA 44 |  | 0.1 µM |
| CC(C)CNCc1cc(N(C)C)c2c(c1O)C(=O)C1=C(O)[C@]3(O)C(=O)C(C(N)=O)=C(O)[C@@H](N(C)C)[C@@H]3C[C@@H]1C2 | microbial growth, broth dilution |  |  | 1 µg/mL |
| CC[P+](CC)(CC)[Au-][S][C@@H]1O[C@H](COC(C)=O)[C@@H](O[C@@H]2O[C@H](COC(C)=O)[C@H](OC(C)=O)[C@H](OC(C)=O)[C@H]2OC(C)=O)[C@H](OC(C)=O)[C@H]1OC(C)=O | broth microdilution | JE2 (USA300) |  | 0.03 µM |
| CC(=O)[O][Ag]=[c]1n(C)ccn1CC(O)c1ccccc1 (stereo not drawn) | broth dilution | ATCC 23235 | 18 h, 37 °C | 5 µg/mL |
| CC1CCN(Cc2cc(N(C)C)c3c(c2O)C(=O)C2=C(O)[C@]4(O)C(=O)C(C(N)=O)=C(O)[C@@H](N(C)C)[C@@H]4C[C@@H]2C3)CC1 |  | RN4250, Tet K efflux |  | 0.25 µg/mL |
| CCc1nc(N)nc(N)c1C#CC(C)c1cc(F)cc(-c2cc(C)nc(C)c2)c1 (racemic) | broth microdilution | ATCC 43300 | 18 h, 37 °C | 0.625 µg/mL |
| COC(=O)CCCCc1cn(CCCNC(=O)Cc2cc(=O)oc3cc(N(C)C)ccc23)nn1 | microbial growth, broth dilution | NCTC8325 | 20 h | > 64 µg/mL |
| CNC(CC(C)C)C(=O)NC1C(=O)NC(CC(N)=O)C(=O)NC2C(=O)NC3C(=O)NC(C(=O)NC(C(=O)NCCCNC(=N)N)c4cc(O)cc(O)c4-c4cc3ccc4O)C(O)c3ccc(c(Cl)c3)Oc3cc2cc(c3OC2OC(CO)C(O)C(O)C2OC2CC(C)(NCc3ccc(-c4ccc(Cl)cc4)cc3)C(O)C(C)O2)Oc2ccc(cc2Cl)C1O (stereo not drawn) |  | MRSA ATCC 43300 |  | 0.02 µg/mL |
| CC1C=CC=CC(C)C2C=CC3CC(C)(O)C(O[N+](=O)[O-])C(C)C3C2C(=O)C(Cl)(Cl)C(=O)C(C)C(=O)O1 (stereo not drawn) | microbial growth, broth dilution | NEWMAN |  | 0.025 µg/mL |
| CN(C)c1cc(CNCC2CCCCC2)c(O)c2c1C[C@H]1C[C@H]3[C@H](N(C)C)C(O)=C(C(N)=O)C(=O)[C@@]3(O)C(O)=C1C2=O |  | MRSA 5, Tet M, 50% human serum |  | 8 µg/mL |
| [N-]=[N+]=NC1COC(=O)N1/N=C/c1ccc([N+](=O)[O-])o1 (stereo not drawn) | microbial growth, broth dilution | ATCC29213 | 18 h | 3.12 µg/mL |
| N=C(N)NCCC[C@@H]1NC(=O)[C@H](CCCNC(=N)N)NC(=O)[C@H](CCCNC(=N)N)NC(=O)[C@H](Cc2c[nH]c3ccccc23)NC(=O)[C@H](Cc2c[nH]c3ccccc23)NC(=O)[C@H](Cc2c[nH]c3ccccc23)NC(=O)[C@H](Cc2c[nH]c3ccccc23)NC(=O)[C@H](CCCNC(=N)N)NC1=O | broth microdilution | MRSA ATCC 43300 |  | 4 µg/mL |
| Cc1csc(NCc2cc(N(C)C)c3c(c2O)C(=O)C2=C(O)[C@]4(O)C(=O)C(C(N)=O)=C(O)[C@@H](N(C)C)[C@@H]4C[C@@H]2C3)n1 |  | RN4250, Tet K efflux |  | 8 µg/mL |
| CCc1ccc(NC(=O)CSc2nc3ccccc3c(=O)n2-c2ccc(S(N)(=O)=O)cc2)cc1 |  | methicillin-resistant | 24 h, 37 °C | 10 µg/mL |
| Oc1c(Cl)cc(Cl)c2cccnc12 | microbial growth, agar dilution | ATCC29213 |  | 37.4 µM |
| COc1c2c(cc3oc(=O)cc(-c4ccc(Cl)cc4)c13)C(=O)c1cc(C)cc(O)c1C2=O | microbial growth |  |  | 64 µg/mL |
| CCCCCCCCCCCCCCN1C(=O)/C(=N\NC(=N)N)c2cc(C)ccc21 | broth microdilution | 29213 | 18 h, 37 °C | > 192 µg/mL |
| CC1OCC2OC(OC3C(N)CC(N)C(O)C3OC3OC(CO)C(OC4OC(CN)C(O)C(O)C4N)C3O)C(N)C(O)C2O1 (stereo not drawn) | broth microdilution | MRSA isolate AG 038 |  | 32 to 64 µg/mL |
| CCS(=O)(=O)[C@H]1[C@H](O)[C@@H](N)[C@@H](O[C@H]2[C@H](O[C@@H]3O[C@H](CO)[C@@H](O[C@H]4O[C@@H](CN)[C@@H](O)[C@H](O)[C@H]4N)[C@H]3O)[C@@H](O)[C@H](N)C[C@@H]2N)O[C@@H]1CO |  | methicillin-resistant |  | > 64 µg/mL |
| COc1cc(Cc2cnc(N)nc2N)cc(/C=C/C(=O)N2N=Cc3ccccc3C2C=C(C)C)c1OC (stereo not drawn) | microbial growth, broth dilution | ATCC29213 | pH 5.8 | 0.25 to 2 µg/mL |
| FC(F)(F)c1cc(CSc2nnc(C34CC5CC(CC(C5)C3)C4)n2-c2ccccc2)cc(C(F)(F)F)c1 | two-fold dilution | IFO 3060 | 24 h, 36 °C | 0.5 µg/mL |
| CNC(CC(C)C)C(=O)NC1C(=O)NC(CC(N)=O)C(=O)NC2C(=O)NC3C(=O)NC(C(=O)NC(C(=O)O)c4cc(O)cc(O)c4-c4cc3ccc4O)C(O)c3ccc(c(Cl)c3)Oc3cc2cc(c3OC2OC(CO)C(O)C(O)C2OC2CC(C)(NC(=O)CCCCCC[n+]3ccccc3)C(O)C(C)O2)Oc2ccc(cc2Cl)C1O (stereo not drawn) | agar dilution | MRSA clinical isolate MRSA4 |  | 128 µg/mL |
| CC(C)CCCCCCc1nc2ccccc2c(=O)n1N | broth microdilution | RN6390B |  | > 100 µM |
| CNC(CC(C)C)C(=O)NC1C(=O)NC(CC(N)=O)C(=O)NC2C(=O)NC3C(=O)NC(C(=O)NC(C(=O)O)c4cc(O)cc(O)c4-c4cc3ccc4O)C(O)c3ccc(c(Cl)c3)Oc3cc2cc(c3OC2OC(CO)C(O)C(O)C2OC2CC(C)(NC(=O)CCCCCCCCC[n+]3ccccc3)C(O)C(C)O2)Oc2ccc(cc2Cl)C1O (stereo not drawn) | agar dilution | MRSA clinical isolate MRSA3 |  | 64 µg/mL |
| CN(C)c1cc(CNCCC(C)(C)C)c(O)c2c1C[C@H]1C[C@H]3[C@H](N(C)C)C(O)=C(C(N)=O)C(=O)[C@@]3(O)C(O)=C1C2=O | microbial growth, broth dilution |  |  | 1 µg/mL |
| Cc1cc(=O)nc(NC(=O)NCCCCCCNC(=O)NCCCCCCNC(=O)OCCOCCOCCOCCOCCOCCOCC(=O)N[C@@H](CCCCN)C(=O)N[C@@H](CCCCN)C(=O)N[C@@H](Cc2ccccc2)C(=O)N2CCC[C@H]2C(=O)N[C@@H](Cc2c[nH]c3ccccc23)C(=O)N[C@@H](Cc2c[nH]c3ccccc23)C(=O)N[C@@H](Cc2c[nH]c3ccccc23)C(=O)N2CCC[C@H]2C(=O)N[C@@H](Cc2ccccc2)C(=O)N[C@@H](CCCCN)C(=O)N[C@@H](CCCCN)C(N)=O)[nH]1 |  | MSSA RN 4220, RPMI medium | 24 h, 37 °C | 15 µM |
| CC1CCN(CCCN2/C(=C/c3cc(/C=C/c4c[nH]c5ccccc45)[n+](C)c4ccccc34)Sc3ccccc32)CC1 | microbial growth, broth dilution | ATCC29213 |  | 16 µg/mL |
| CN(C)c1cc(CN2CCc3ccccc3C2)c(O)c2c1C[C@H]1C[C@H]3[C@H](N(C)C)C(O)=C(C(N)=O)C(=O)[C@@]3(O)C(O)=C1C2=O |  | MRSA 5, Tet M, 50% human serum |  | > 64 µg/mL |

Repeated from above:
| SMILES | assay | system | conditions | MIC |
| --- | --- | --- | --- | --- |
| CNC(CC(C)C)C(=O)NC1C(=O)NC(CC(N)=O)C(=O)NC2C(=O)NC3C(=O)NC(C(=O)NC(C(=O)NCCCNC(=N)N)c4cc(O)cc(O)c4-c4cc3ccc4O)C(O)c3ccc(c(Cl)c3)Oc3cc2cc(c3OC2OC(CO)C(O)C(O)C2OC2CC(C)(NCc3ccc(-c4ccc(Cl)cc4)cc3)C(O)C(C)O2)Oc2ccc(cc2Cl)C1O (stereo not drawn) |  | MRSA ATCC 43300 |  | 0.02 µg/mL |
| CC1C=CC=CC(C)C2C=CC3CC(C)(O)C(O[N+](=O)[O-])C(C)C3C2C(=O)C(Cl)(Cl)C(=O)C(C)C(=O)O1 (stereo not drawn) | microbial growth, broth dilution | NEWMAN |  | 0.025 µg/mL |
| CN(C)c1cc(CNCC2CCCCC2)c(O)c2c1C[C@H]1C[C@H]3[C@H](N(C)C)C(O)=C(C(N)=O)C(=O)[C@@]3(O)C(O)=C1C2=O |  | MRSA 5, Tet M, 50% human serum |  | 8 µg/mL |
